Published values of several laboratories.
Every numbered part comes from another study and shows a few of its results, in no order. “And” joins repeats or separate records; there may be more than shown.

Set 1
Organism: Plasmodium berghei
Mode: inhibitor
Cell line: Huh-7
Strain: GFP-expressing, liver stage
Concentration: 10 µM
Time: 24 h
Relative to: untreated control
SMILES	infection rate
Cc1ccc(/C(=C\CN2CCCC2)c2ccccn2)cc1	76.8%
CCN1CCN(C(=O)N[C@@H](C(=O)N[C@@H]2C(=O)N3[C@@H]2SC(C)(C)[C@@H]3C(=O)O)c2ccccc2)C(=O)C1=O	98%
OCCc1ccccc1	95.3%
OC(CCN1CCCCC1)(c1ccccc1)C1CCCCC1 (stereo not drawn)	95%
OCc1ccccc1O	101%
OCc1cccnc1	97.4%
C=CCCCCCCCCC(=O)O	78.4%
Cc1nc2ccccn2c(=O)c1CCN1CCC(C(=O)c2ccc(F)cc2)CC1	85.1%
Nc1ccc(C(=O)O)cc1	106%

Set 2
Target: DNA polymerase theta, ATPase domain (POLQ, Homo sapiens, UniProt O75417)
Chain of UniProt O75417 (whole entry, unmodified, looked up): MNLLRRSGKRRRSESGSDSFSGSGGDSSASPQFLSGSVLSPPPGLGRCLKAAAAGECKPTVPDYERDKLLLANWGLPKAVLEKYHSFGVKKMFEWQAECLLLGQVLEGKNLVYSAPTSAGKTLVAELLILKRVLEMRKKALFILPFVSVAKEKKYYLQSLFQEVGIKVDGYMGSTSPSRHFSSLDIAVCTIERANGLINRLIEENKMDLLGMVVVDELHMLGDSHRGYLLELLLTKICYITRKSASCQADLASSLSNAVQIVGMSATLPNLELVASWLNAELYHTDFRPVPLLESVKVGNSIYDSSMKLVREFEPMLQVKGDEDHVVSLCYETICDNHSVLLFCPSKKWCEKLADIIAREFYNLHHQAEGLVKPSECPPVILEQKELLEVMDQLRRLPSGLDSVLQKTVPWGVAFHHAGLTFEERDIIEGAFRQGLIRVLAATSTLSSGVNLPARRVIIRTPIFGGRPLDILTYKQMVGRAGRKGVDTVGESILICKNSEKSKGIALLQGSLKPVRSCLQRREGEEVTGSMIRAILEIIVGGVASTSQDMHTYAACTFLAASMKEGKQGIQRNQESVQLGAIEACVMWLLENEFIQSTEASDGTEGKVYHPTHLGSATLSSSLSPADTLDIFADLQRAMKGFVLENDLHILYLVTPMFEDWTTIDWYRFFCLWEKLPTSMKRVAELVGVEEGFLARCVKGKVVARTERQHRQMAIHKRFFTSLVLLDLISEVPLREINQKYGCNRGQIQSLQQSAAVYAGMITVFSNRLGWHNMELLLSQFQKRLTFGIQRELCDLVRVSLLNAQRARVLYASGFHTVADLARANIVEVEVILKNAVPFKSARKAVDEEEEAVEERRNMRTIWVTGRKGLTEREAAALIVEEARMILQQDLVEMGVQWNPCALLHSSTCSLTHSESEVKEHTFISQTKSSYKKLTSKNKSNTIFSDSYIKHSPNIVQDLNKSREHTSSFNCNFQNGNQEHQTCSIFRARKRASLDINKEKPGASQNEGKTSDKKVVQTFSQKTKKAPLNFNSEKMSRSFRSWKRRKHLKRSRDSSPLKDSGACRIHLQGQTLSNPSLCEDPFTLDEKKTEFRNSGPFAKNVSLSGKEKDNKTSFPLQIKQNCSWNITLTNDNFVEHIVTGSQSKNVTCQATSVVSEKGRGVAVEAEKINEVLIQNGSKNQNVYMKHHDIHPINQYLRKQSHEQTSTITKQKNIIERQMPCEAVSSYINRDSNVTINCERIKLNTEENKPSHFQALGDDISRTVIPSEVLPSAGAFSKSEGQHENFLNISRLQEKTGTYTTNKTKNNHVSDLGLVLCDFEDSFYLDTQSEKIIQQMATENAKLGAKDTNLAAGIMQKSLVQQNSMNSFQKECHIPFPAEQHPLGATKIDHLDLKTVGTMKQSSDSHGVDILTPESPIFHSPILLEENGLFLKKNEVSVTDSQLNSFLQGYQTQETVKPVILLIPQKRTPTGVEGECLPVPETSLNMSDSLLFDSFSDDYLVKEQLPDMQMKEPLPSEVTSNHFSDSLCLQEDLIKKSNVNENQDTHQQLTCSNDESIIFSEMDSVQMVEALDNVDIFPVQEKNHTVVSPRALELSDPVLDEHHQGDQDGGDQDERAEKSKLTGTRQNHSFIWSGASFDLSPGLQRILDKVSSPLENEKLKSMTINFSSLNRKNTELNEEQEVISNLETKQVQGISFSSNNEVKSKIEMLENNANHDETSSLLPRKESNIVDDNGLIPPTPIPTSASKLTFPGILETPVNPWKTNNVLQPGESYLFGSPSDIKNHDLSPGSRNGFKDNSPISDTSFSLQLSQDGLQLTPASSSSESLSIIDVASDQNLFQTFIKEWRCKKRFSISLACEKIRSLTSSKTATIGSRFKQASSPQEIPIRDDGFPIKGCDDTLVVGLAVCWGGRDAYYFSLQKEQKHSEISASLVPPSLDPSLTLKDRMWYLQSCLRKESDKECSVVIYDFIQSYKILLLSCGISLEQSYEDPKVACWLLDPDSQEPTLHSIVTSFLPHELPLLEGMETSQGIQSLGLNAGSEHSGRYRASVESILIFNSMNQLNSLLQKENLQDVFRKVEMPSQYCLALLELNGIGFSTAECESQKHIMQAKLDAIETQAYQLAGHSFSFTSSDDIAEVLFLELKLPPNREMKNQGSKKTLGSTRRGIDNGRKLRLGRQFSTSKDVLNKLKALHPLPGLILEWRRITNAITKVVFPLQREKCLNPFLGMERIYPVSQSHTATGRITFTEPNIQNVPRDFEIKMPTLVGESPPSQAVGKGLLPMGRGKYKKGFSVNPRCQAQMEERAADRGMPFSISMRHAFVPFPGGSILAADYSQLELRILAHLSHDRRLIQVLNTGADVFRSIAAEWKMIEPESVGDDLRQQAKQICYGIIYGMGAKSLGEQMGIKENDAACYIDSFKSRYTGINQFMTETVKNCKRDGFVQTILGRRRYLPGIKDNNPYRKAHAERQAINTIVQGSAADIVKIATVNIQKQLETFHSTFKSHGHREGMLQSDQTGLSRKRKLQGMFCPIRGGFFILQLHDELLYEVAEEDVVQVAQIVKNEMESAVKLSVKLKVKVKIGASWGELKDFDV
Read-out: enzyme activity
Mode: inhibitor
Concentration: 77 µM
Relative to: untreated
SMILES	remaining activity
O=C(/C=C/c1ccc(O)c(O)c1)O[C@@H]1C[C@](O)(C(=O)O)C[C@@H](O)[C@H]1O	103% and 95.1%
Cc1cc2c(C(=O)NC[C@H](C)c3ccccc3)c(O)c(O)cc2c(O)c1-c1c(C)cc2c(C(=O)NC[C@H](C)c3ccccc3)c(O)c(O)cc2c1O	93%
CC(N)CCCC(C)(C)O (stereo not drawn)	105%
OCC(O)CN1CCN(c2ccccc2)CC1 (racemic)	102%
COC1(C2=NCCN2)COc2ccccc2O1 (stereo not drawn)	106%
CC[C@H](c1ccc(O)cc1)[C@@H](CC)c1ccc(O)cc1	103% and 92.7%
NS(O)(O)Cc1noc2ccccc12	101%

Set 3
Target: 5-hydroxytryptamine receptor 1D (HTR1D, Homo sapiens, UniProt P28221)
Chain of UniProt P28221 (whole entry, looked up): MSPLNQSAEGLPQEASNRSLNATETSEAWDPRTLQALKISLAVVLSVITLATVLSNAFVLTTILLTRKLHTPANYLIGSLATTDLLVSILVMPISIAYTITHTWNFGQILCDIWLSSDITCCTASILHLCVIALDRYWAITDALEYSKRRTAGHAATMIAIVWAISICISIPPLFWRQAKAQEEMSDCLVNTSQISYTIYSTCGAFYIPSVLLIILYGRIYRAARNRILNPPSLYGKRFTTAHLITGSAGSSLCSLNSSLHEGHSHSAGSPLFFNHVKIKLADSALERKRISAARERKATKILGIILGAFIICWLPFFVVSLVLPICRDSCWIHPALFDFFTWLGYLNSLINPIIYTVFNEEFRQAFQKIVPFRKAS
Read-out: ligand displacement
Technique: radioligand
Concentration: 10 µM
Structure (SMILES)	inhibition [%]
O=C(NCc1ncc(C(F)(F)F)cc1Cl)c1ccc2c(c1)C1(CCS(=O)(=O)CC1)[C@H](C1CC1)N2S(=O)(=O)c1ccc(F)cc1	-13.3
O=S(=O)(NC1CCC(c2cc(F)ccc2F)(S(=O)(=O)c2ccc(Cl)cc2)CC1)C(F)(F)F (stereo not drawn)	13.9
COc1ccc2cc(OCC3(C(=O)O)CN(C(=O)c4ccc(F)cc4)C3)ccc2c1	-24
c1ccc(N2CCN(Cc3nc4ccccc4[nH]3)CC2)nc1	-11.2
Cc1nccc(COC(=O)N2C[C@@H]3[C@@H](CNC(=O)c4ccc5[nH]nnc5c4)[C@@H]3C2)n1	23
CC(=O)c1c(NS(C)(=O)=O)c2cc(-c3ccc(Cl)cc3)c(-c3ccc(Cl)cc3Cl)nc2n(C)c1=O	68.5
C[C@H](NC(=O)c1cnc2n1[C@](C)(Cc1ccc(C#N)cc1)C(=O)N2c1cc(Cl)c(F)c(Cl)c1)C(=O)NC1(c2ccccn2)CC1	12
O=C(N1CCS(=O)(=O)CC1)N1C[C@H](c2ccc(OC(F)(F)F)cc2)C[C@H](c2nc(C3CC3)no2)C1	5.17
FC(F)(F)c1ccc2c(c1)nc(-c1cccnc1)n2C1CC1	6.79
CCS(=O)(=O)c1cc2cc(C[C@@](O)(CC(C)(C)c3ccc(F)cc3C(N)=O)C(F)(F)F)[nH]c2cn1	7.98
O=c1nc(-c2ccccn2)sc2ccccc12	-10.2
CNCc1ccccc1-c1csc([C@H](C)Nc2nc(C)nc3cc(OC)c(OC)cc23)c1	98.9
O=C(N[C@H]1CCCCC/C=C\C2C[C@@]2(C(=O)O)NC(=O)[C@@H]2C[C@@H](Oc3ccncc3)CN2C1=O)OC1CCCC1 (stereo partly drawn)	3.22
O=C(NC[C@@H]1[C@H]2CN(C(=O)OCc3cc(C(F)(F)F)cc(C(F)(F)F)c3)C[C@@H]12)c1ccc2[nH]nnc2c1	43.2

Set 4
Target: Bromodomain-containing protein 4, BD1 (BRD4, Homo sapiens, UniProt O60885)
Read-out: acetyl-histone H4 peptide binding
Technique: AlphaScreen displacement
Concentration: 50 µM
Structure (SMILES)	inhibition [%]
Cc1nc(N)sc1-c1csc(Nc2ccc(Cl)cc2)n1	81.7
CN(C)c1ncnc2nc[nH]c12	2.05
Fc1ccc(-c2[nH]c3ncccc3c2CN2CCOCC2)cc1	6.3
CCCCn1nc(C(=O)NCCC(=O)O)c2ccccc2c1=O	-0.2
CC(C)(C)OC(=O)N1CCc2nc(Nc3ccc(F)cc3)ncc2C1	11.6
O=c1cc(N2CCOCC2)oc2c1ccc1ccccc12	11.8

For quick reference, copied from above (set 4):
Structure (SMILES)	inhibition [%]
Fc1ccc(-c2[nH]c3ncccc3c2CN2CCOCC2)cc1	6.3
CC(C)(C)OC(=O)N1CCc2nc(Nc3ccc(F)cc3)ncc2C1	11.6
O=c1cc(N2CCOCC2)oc2c1ccc1ccccc12	11.8
CN(C)c1ncnc2nc[nH]c12	2.05
Cc1nc(N)sc1-c1csc(Nc2ccc(Cl)cc2)n1	81.7
